Results from different studies.
Numbered parts are unrelated; each lists some results of a single study. Changes are numbered by the printed parent chain.

Set 1 — technique: EMSA with sequencing; molecule type: double-stranded DNA, one strand shown; medium: in vitro; tested at: 10 and 20 nM; reference: negative control set to 0; direction: higher = stronger binding
Target: Hepatocyte nuclear factor 3-alpha (Foxa1, Mus musculus, UniProt P35582, residues 1-468, full length assumed)
UniProt P35582, sequence (whole entry, looked up): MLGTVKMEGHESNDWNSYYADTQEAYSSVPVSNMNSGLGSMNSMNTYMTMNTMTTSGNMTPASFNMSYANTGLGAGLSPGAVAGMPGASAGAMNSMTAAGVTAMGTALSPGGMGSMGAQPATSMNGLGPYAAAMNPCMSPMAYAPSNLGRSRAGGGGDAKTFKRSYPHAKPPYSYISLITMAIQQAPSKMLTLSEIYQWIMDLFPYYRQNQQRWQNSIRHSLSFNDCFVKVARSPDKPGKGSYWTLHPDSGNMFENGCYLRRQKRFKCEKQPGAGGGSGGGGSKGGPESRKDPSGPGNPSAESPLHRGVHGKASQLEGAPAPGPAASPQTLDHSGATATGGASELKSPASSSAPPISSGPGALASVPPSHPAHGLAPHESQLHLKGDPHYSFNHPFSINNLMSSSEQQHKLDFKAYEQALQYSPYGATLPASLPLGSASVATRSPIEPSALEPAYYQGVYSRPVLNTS
Setting: whole designed probe, mean of two concentrations, ends assumed
Under “normalised bound fraction”, `GTGAGCGGTGCCCATTGATGGGGAACGGCAATATAATTATTTACTGGGTGCGTGGCTCACGCCTGTAATCCCAGCATTTTGGGAGGCCTAATTTGTTAAAATGACTAGATCTAAGAAATGTAAACAAAGCCAGTAACTTTCCTCTGTAGTAACAATAGCCGGTTGAAAATGAAAACTACACATTTTCATTCTTTCAGTGGTTCTCTTAAACTTTAGCATTTTCACTGGGATCGTGGGGAC` is recorded as 0.381 ratio.
`GTGAGCGGTGCCCATTGATGGGGAACTCTAAATCTAATCAATTAAAATGGCTTTTTATAAGTAGCTGGATTTTTATGACTGCAAATATTGCTTTCCTGCTTATTTTCCTTCTAATCCTGTGTTTACTTAGCTAGTTCAAGGAGTCAAGGCAGTACAGTGTATATAAGGAAGGGCTTTGGCATTAGTCAACTCTGGGTCATATCCTAGTTTCCCAGTTACTTTCACTGGGATCGTGGGGAC` — result for “normalised bound fraction”: 0.461 ratio.
Under “normalised bound fraction”, `GTGAGCGGTGCCCATTGATGGGGAACTCGCATATAACTCTTCTACAGAGGAATCTAGACTTGGTGAATGCACCATTGTTCTCCGAAGGGCCCCTCCACCTAAAACGGGGCAGGAACCAATGTAATCTCCGGCGTTAGTGGGTCAGGTAAGTGATCCTGAGGCATAGGGGGTGAGGTAGCGTGAGTTAGCATCAGGCTCATATAGAGGACGCAATAAAGATTTCACTGGGATCGTGGGGAC` is recorded as -0.079 ratio.
Under “normalised bound fraction”, `GTGAGCGGTGCCCATTGATGGGGAACCTCATTCCTTGCTTCCGCCAATAATCTGACTAGTAAAGAAGTCACTGCATGCCACAAATTGTCAGTGCTGACTTCCTCAACAAGGAAGTTATTTATTTACTTATTTAATATATGAGTGTCACAGATGCAAATTCCATCTTGAGAATACCAACTCCTGATGCCAACTGATTGTCAGTCATGGCTACAACAGGAGTTTCACTGGGATCGTGGGGAC` is recorded as 0.473 ratio.

Set 2 — technique: aptamer microarray, sandwich; molecule type: DNA with 2'F-ANA; medium: in vitro; tested at: 200 nM; together with: Cy3 exosite-II aptamer, 400 nM; direction: higher = stronger binding; strand: GGTTGGTGTGGTTGG
Target: Prothrombin, mature alpha-thrombin (F2, Homo sapiens, UniProt P00734)
Setting: whole 15-mer aptamer, many near background
`2'F-ANA at 1 4 6 8 9 10 12 14`: “mean fluorescence intensity” 62.8 a.u.
Under “mean fluorescence intensity”, `2'F-ANA at 2 5 8 11` is recorded as 65.8 a.u.
Under “mean fluorescence intensity”, `2'F-ANA at 1 2 7 8 12 13 15` is recorded as 318 a.u.
Under “mean fluorescence intensity”, `2'F-ANA at 3 5 8 13 14` is recorded as 58.9 a.u.
`2'F-ANA at 3 4 5 8 10 14`: “mean fluorescence intensity” 50.7 a.u.
Under “mean fluorescence intensity”, `2'F-ANA at 2 5 9 10 11 13 14 15` is recorded as 44.7 a.u.
Under “mean fluorescence intensity”, `2'F-ANA at 3 7 13` is recorded as 993 a.u.
`2'F-ANA at 2 5 10 15`: “mean fluorescence intensity” 66.6 a.u.
Under “mean fluorescence intensity”, `2'F-ANA at 1 3 5 6 7 9 14 15` is recorded as 45.3 a.u.
Under “mean fluorescence intensity”, `2'F-ANA at 2 3 4 5 9 10 12 13` is recorded as 53.2 a.u.
For `2'F-ANA at 1 4 5 6 9 11 12 13 14 15`, “mean fluorescence intensity” read 58.5 a.u.
For `2'F-ANA at 1 6 8 9 14 15`, “mean fluorescence intensity” read 57.1 a.u.
For `2'F-ANA at 3 12 14`, “mean fluorescence intensity” read 791 a.u.
`2'F-ANA at 1 2 3 4 5 6 8 11 12` — result for “mean fluorescence intensity”: 109 a.u.
`2'F-ANA at 1 2 8 9 12` — result for “mean fluorescence intensity”: 391 a.u.
Under “mean fluorescence intensity”, `2'F-ANA at 6 9 10 11 12 13 15` is recorded as 145 a.u.
`2'F-ANA at 1 6 8 10 12 13`: “mean fluorescence intensity” 65.4 a.u.
`2'F-ANA at 1 3 4 5 6 7 9 11 12 13 14` — result for “mean fluorescence intensity”: 56.4 a.u.
For `2'F-ANA at 1 7 8 9 10 11 12 15`, “mean fluorescence intensity” read 74 a.u.
Under “mean fluorescence intensity”, `2'F-ANA at 3 7 9 12 13` is recorded as 1230 a.u.
For `2'F-ANA at 1 4 5 6 7 15`, “mean fluorescence intensity” read 53 a.u.
`2'F-ANA at 1 5 8 9 12 13 15`: “mean fluorescence intensity” 82 a.u.
Under “mean fluorescence intensity”, `2'F-ANA at 5 7 11 13 15` is recorded as 55.4 a.u.
Under “mean fluorescence intensity”, `2'F-ANA at 1 6 7 8 10 11 12 14 15` is recorded as 50.2 a.u.
Under “mean fluorescence intensity”, `2'F-ANA at 3 10 13 14 15` is recorded as 400 a.u.

Set 3 — target: CCNA1, cyclin fold, Cln2 fusion (human); technique: yeast growth competition, sequencing; medium: yeast; setting: weak parent motif; reference: not given; direction: higher = stronger binding
Parent: CDC6 docking peptide (human); TLKGRRLVFDNQL; partner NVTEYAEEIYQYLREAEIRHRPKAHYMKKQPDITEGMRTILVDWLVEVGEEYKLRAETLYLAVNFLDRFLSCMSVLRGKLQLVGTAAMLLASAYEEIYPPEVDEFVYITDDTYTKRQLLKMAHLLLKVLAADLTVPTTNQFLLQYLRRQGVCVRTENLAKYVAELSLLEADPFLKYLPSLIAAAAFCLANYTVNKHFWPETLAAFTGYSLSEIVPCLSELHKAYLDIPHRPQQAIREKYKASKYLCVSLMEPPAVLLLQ
`L13Y` — result for “normalised enrichment score”: 0.218.
`D10R`: “normalised enrichment score” 0.222.
For `R5G`, “normalised enrichment score” read 0.123.
`F9R`: “normalised enrichment score” 0.121.
`L2Q` — result for “normalised enrichment score”: 0.14.
For `L13W`, “normalised enrichment score” read 0.872.
`T1W`: “normalised enrichment score” 0.548.
Under “normalised enrichment score”, `N11R` is recorded as 0.487.
`Q12D`: “normalised enrichment score” 0.325.
For `L2V`, “normalised enrichment score” read 0.281.
`L13N`: “normalised enrichment score” 0.323.
Under “normalised enrichment score”, `K3R` is recorded as 0.294.
`L7W` — result for “normalised enrichment score”: 0.463.
For `T1L`, “normalised enrichment score” read 0.214.
For `D10I`, “normalised enrichment score” read 0.388.
`D10L` — result for “normalised enrichment score”: 0.154.

Set 4 — technique: DHFR PCA, deep sequencing; medium: yeast; together with: (+)-ABA 0.39 µM; reference: wild-type fitted maximum; direction: higher = stronger binding
Target: ABI1, truncated, D143A, DHFR fusion (Arabidopsis thaliana)
Setting: methotrexate growth selection, single substitutions
Parent: PYL1, truncated, DHFR fusion (Arabidopsis thaliana); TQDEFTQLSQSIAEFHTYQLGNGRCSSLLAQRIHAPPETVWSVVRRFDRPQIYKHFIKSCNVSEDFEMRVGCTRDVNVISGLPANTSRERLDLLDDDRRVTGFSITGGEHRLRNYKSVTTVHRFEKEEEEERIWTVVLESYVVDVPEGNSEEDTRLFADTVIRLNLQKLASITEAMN
For `V44G`, “relative binding score” read -9.93%.
`E151C` — result for “relative binding score”: 32.8%.
`R49Y`: “relative binding score” -7.84%.
For `F5E`, “relative binding score” read 17.3%.
Under “relative binding score”, `Q7A` is recorded as 51.3%.
For `D96L`, “relative binding score” read -7.13%.
For `V143L`, “relative binding score” read -14.5%.
For `D95F`, “relative binding score” read -7.81%.
Under “relative binding score”, `I57E` is recorded as -3.66%.
For `H110A`, “relative binding score” read 13.6%.
For `F103P`, “relative binding score” read -18.4%.
`L8N`: “relative binding score” -9.84%.

Set 5 — technique: RNA Bind-n-Seq; molecule type: RNA; medium: in vitro; tested at: 100 nM; reference: input RNA pool; direction: higher = stronger binding
Target: RING finger protein unkempt homolog, zinc fingers 1-6, SBP tag (UNK, Homo sapiens, UniProt Q9C0B0, residues 30-357)
UniProt Q9C0B0, sequence (30-357, looked up): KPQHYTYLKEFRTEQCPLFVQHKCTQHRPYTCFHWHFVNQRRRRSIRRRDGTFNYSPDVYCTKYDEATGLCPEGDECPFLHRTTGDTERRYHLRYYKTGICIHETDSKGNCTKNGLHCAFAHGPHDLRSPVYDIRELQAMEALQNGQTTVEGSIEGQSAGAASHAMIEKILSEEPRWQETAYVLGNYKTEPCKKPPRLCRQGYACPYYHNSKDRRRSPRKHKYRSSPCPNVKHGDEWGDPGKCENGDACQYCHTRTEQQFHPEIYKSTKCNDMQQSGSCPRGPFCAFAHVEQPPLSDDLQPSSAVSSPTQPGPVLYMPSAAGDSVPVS
Setting: RNA with constant flanks, vertebrate orthologous sites, ends assumed
`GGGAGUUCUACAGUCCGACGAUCUUGCUUUCAGGUUGUGGCUAGUCACCCUCCUUCCCUUCCUCCACUUUAAGUUCUUUCCUUUGCACCCUUCAUAUCCCCUCUCUCAACUCAGACAGGUGUGGAGUAUUUUACUCAGUCAUUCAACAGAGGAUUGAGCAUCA` has a bound/input enrichment of 0.846 ratio.
For `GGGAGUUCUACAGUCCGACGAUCCCAGUUUGUAUGCACAUUAUACACAUUCCUCUCUGUUGUGUUUGCAAAAAAUAAGACAUUUUAGUUUUUUCUAAGGGUUAUUGAUUCACUUUCUCAUUUGGCUGCAUGAAAUUGCCCUUACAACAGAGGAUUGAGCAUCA`, the bound/input enrichment was 0.42 ratio.
`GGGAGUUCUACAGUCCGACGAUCUCCAGUCUUACACUUAUGGUUGGCCUCAAAUCUAUUGCAUUUAUGAUAAUGUAUUAUAUCUAGUUGAGUUUAAUAUUUUUUUAUUAGCCUGUAAAUAAAGAUGGCAUCUUCUACAUUAAACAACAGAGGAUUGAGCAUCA` gave a bound/input enrichment of 0.555 ratio.
With `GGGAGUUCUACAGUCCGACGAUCUAUUAUAUGUAGAGAAAAAUUUUCAUUGACUCUCAUUGUGGAAUUCCCUAGCAAUUUAUUUAGACUUAAUUUUUUAAAUUCAAGCUUACUGUAUUAGUCAUUUUUAGCCCAUAAUUAAAACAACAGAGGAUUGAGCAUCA` the bound/input enrichment was 14.1 ratio.
For `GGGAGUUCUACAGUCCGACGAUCGACAGGGCCCAGGCCCCCGCCACUCAGAGUGGCCCACUGGCCACUUCAGCCAGGGCAUUUUGGCUCCGUUUUUUAUUUUAACAGUGCCCUUAUUAUCCGUGUGUAUAUGCCUGCGAUUUGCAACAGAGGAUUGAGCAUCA`, the bound/input enrichment was 0.665 ratio.
`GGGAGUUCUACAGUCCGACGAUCGUAUACCCCUCUCCCUGUGAUAUUUAAAAUAUGCACAGUCCUAUUUUUUCUAAAUGAUUCUAGUAAUUUUCUAGCAAUAUCUAUCUCUUACCUGUUAUUUAUCAAUUUUCCCCUUAAGUGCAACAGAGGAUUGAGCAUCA` has a bound/input enrichment of 5.99 ratio.
For `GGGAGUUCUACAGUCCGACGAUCCUCUCUGAGCGAUAGUAUUCCGUCUGUAGCAGAUUCGCACUCCAGCCAUUUCUCUGAGUUCAGCUGCUCAGAUAUGGAAAGUAUGAAAACUUCCUGUAGCCAUGGUUCCAGCGACUAUCACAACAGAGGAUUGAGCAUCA`, the bound/input enrichment was 0.217 ratio.

Set 6 — technique: protein-binding microarray; molecule type: double-stranded DNA, one strand shown; medium: in vitro; tested at: 2540 nM top; setting: 60-bp whole probe; together with: salmon DNA 0.4 mg/ml; reference: random background probes; direction: higher = stronger binding; shared flanks, not repeated: GCCTAGCAC … GTCTTGATTCGCTTGACGCTGCTG
Target: Interferon regulatory factor 3, full length, phosphomimetic (IRF3, Homo sapiens, UniProt Q14653, residues 1-427, S386D/S396D/S398D/S402D/T404D/S405D)
Residues (chain): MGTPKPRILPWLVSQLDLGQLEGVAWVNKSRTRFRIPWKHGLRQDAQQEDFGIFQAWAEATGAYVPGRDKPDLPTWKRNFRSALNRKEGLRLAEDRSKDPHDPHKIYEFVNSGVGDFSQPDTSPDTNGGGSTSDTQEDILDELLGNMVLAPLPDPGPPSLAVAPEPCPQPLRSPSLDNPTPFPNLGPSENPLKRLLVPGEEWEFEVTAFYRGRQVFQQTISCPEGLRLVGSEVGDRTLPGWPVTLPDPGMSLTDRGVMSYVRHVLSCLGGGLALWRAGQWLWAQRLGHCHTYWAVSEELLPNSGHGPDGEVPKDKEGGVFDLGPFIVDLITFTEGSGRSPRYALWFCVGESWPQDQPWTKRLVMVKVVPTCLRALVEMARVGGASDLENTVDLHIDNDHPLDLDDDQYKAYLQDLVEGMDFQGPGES
`TTAGGTCTCGGTATCTGTTAGTGCTAG` — result for “fitted relative affinity”: 1.23 z-score.
For `GACGGTATCAGGTTTCGGGACGTGCTA`, “fitted relative affinity” read 3.5 z-score.
Under “fitted relative affinity”, `TCATGTCTGTAGCTCATACTGTGCTAG` is recorded as 0.0745 z-score.
`GACGTACTGGGGACTGGAGACGTGCTA` — result for “fitted relative affinity”: -0.639 z-score.
`TTAGATATCGACACTGGGTTAGTGCTA`: “fitted relative affinity” -0.336 z-score.
`GACGGACTGCTCCTCCTGACGTGCTAG`: “fitted relative affinity” -0.353 z-score.
For `GACGGTTGCCTTTCCCTGACGTGCTAG`, “fitted relative affinity” read 5.18 z-score.
For `TCTTGTCTGGATGTGCCTTAGTGCTAG`, “fitted relative affinity” read 0.102 z-score.
`TTAGATCTCAGTAACGATTAGTGCTAG` — result for “fitted relative affinity”: 0.0176 z-score.
For `GACGATTTCAGTTCTGAGACGTGCTAG`, “fitted relative affinity” read 3.23 z-score.
Under “fitted relative affinity”, `TTAGATATCGGACTGGGTTAGTGCTAG` is recorded as -0.14 z-score.
Under “fitted relative affinity”, `TCACATCTTCCTCTGCCACTGTGCTAG` is recorded as 0.974 z-score.
`TATAGGTTGTTTCTAATATTGTGCTAG`: “fitted relative affinity” 1.04 z-score.
Under “fitted relative affinity”, `TCATCTTTGCTTCACCCACTGTGCTAG` is recorded as 0.722 z-score.
`GACGCTTTCGACTTTCGGGACGTGCTA`: “fitted relative affinity” 1.72 z-score.
